Experimental data pooled from the literature.
Numbered parts are unrelated; each lists some results of a single study. Positions count from the first letter of the parent shown.
UniProt P62253, sequence (whole entry, looked up): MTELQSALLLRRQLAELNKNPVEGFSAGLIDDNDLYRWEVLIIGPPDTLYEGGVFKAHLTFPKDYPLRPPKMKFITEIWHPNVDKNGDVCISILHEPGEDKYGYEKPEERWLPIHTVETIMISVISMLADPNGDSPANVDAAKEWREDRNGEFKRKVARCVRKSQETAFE
UniProt Q8N2K1, sequence (whole entry, looked up): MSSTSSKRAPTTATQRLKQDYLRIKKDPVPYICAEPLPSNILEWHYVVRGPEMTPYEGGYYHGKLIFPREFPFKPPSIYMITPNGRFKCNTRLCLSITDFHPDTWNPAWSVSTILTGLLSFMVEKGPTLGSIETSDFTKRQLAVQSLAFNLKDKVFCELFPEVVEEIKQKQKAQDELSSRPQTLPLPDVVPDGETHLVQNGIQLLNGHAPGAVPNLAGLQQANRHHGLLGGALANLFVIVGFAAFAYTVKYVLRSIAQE
UniProt Q969T4, sequence (whole entry, looked up): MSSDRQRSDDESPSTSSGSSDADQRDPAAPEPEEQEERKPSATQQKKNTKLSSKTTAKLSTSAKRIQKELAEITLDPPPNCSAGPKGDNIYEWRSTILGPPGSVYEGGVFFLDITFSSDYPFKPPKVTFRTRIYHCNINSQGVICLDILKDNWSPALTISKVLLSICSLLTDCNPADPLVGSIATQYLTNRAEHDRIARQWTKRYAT
UniProt P63146, sequence (whole entry, looked up): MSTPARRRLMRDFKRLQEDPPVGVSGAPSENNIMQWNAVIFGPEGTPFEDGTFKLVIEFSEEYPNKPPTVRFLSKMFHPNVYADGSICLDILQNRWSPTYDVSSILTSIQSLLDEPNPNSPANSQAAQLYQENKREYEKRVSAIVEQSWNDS
UniProt O00762, sequence (whole entry, looked up): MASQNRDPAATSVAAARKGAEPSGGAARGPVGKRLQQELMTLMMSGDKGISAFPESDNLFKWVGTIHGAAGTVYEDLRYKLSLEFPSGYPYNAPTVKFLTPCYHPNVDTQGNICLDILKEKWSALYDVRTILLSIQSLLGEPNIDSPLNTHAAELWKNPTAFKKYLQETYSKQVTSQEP
UniProt Q16763, sequence (whole entry, looked up): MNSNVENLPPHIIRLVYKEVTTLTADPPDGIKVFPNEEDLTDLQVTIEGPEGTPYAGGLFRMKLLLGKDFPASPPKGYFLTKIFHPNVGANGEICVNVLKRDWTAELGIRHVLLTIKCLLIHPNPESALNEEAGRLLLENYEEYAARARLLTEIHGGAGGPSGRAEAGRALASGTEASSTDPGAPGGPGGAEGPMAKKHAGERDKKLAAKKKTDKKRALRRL
UniProt Q9C0C9, sequence (whole entry, looked up): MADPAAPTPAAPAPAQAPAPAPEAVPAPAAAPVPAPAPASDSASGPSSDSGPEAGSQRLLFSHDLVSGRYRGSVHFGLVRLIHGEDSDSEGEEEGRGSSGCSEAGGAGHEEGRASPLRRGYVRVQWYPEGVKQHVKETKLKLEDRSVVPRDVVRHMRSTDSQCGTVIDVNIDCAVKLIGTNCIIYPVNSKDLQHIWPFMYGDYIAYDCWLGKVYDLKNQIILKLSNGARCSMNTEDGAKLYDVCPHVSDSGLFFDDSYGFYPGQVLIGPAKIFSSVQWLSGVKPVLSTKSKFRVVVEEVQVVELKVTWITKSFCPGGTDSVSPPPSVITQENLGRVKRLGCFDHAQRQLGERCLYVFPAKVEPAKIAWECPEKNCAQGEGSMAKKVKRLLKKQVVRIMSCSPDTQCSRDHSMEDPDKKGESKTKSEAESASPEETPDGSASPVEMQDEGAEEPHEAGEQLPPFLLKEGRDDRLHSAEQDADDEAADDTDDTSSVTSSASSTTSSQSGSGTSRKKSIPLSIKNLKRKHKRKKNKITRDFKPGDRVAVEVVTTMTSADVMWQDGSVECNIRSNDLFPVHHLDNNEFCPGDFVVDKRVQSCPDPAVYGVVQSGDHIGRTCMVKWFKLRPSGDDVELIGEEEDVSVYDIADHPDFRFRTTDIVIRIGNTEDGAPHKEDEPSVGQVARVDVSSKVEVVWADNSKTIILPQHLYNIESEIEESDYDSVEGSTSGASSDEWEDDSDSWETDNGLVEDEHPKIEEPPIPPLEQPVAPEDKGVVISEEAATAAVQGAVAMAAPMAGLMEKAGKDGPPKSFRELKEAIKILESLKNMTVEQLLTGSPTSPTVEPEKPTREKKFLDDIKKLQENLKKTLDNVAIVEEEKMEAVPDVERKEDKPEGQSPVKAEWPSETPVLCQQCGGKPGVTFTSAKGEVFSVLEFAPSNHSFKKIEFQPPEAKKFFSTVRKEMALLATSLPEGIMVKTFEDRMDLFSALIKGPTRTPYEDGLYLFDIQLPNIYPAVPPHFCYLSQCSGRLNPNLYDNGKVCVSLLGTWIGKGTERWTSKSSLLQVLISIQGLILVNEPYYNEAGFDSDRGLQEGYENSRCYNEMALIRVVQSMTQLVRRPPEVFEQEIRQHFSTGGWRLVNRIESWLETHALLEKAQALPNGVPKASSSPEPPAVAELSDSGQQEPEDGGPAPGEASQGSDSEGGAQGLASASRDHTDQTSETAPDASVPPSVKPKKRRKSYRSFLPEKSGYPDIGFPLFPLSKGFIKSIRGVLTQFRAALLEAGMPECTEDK
UniProt P68036, sequence (whole entry, looked up): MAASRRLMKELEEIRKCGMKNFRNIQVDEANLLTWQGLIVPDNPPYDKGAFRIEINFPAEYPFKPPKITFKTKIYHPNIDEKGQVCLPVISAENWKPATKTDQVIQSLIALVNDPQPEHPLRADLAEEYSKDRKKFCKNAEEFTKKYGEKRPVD

Study 1 — method: RNA Bind-n-Seq; form: RNA; sample: in vitro; tested at: 200 nM; notes: whole 134-nt RNA, ends assumed; together with: 150 mM KCl; baseline: input library; direction: higher = stronger binding
Target: Fragile X messenger ribonucleoprotein 1, C-terminal low-complexity region (Fmr1, Mus musculus, UniProt P35922)
| Oligonucleotide | log2 enrichment |
| --- | --- |
| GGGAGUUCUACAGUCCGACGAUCUGGGAGGUGGAUUUUGUUUAUUUUUUUAGCUCAUUUCCAGGGGUGGGAAUUUUUUUUUAAUAUGUGGCAUGAAUAAAGUUGUUUUUGAAAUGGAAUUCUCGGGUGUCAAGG | 0.403 |
| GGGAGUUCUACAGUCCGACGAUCCACAGACAACACGCACCCACACAGACACAGAGGGAAGGGGUUGGGAUGGGGACAGGGUGCACAGCAGGGCGGGGUAGGACCCCAACCCCUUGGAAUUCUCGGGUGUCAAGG | 1.16 |
| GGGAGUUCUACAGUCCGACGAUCCAAAGACAACACGCACCCACACAGACACAGAGGGAAGGGGUUGGGAUGGGGACAGGGUGCACAGCAGGGCGGGGUAGGACCCCAGCCCCUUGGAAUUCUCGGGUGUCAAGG | 1.16 |
| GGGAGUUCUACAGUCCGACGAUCACCAUGCAGGUGGGCAUCUUUGGGAAGUGGGGCAAGGGGGGGAUAGGGAGGGGGGUAACACUUUGGGAACAGGUGGUCCCAGGUCGUAAAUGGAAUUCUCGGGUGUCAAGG | 0.806 |
| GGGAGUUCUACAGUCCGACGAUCUCCUGUGCUACACAUCGUAUGUACCGAAUCGGGGAAAAAGGGGAAAGGGGAAAAAGGGGAAAGUAUUAUGUUACGCCGUUCGGAUCUGCAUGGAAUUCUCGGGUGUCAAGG | 0.363 |
| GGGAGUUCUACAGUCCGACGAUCCACAGACAACACGCACCCACACAGACACAGAGGGAAGGGGUUGGGAUGGGGACAGGGUGCAUAGCAGGGCGGGGUAGGACCCCAGCCCCUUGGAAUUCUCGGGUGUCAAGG | 1.18 |
| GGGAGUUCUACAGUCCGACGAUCCUCAAGUCCUGUGCUACACAUCGUAUGUACCGAAUCGGUUGGGGUUGGGUUGGGAAAGUAUUAUGUUACGCCGUUCGGAUCUGCACUUCCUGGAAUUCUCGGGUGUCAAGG | 1.19 |
| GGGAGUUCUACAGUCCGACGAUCAGUCCUGUGCUACACAUCGUAUGUACCGAAUCGGGAAAAGGGGAAAAGGGGAAAAGGAAAGUAUUAUGUUACGCCGUUCGGAUCUGCACUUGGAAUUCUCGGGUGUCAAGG | 0.0407 |
| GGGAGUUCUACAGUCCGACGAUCCUCAAGUCCUGUGCUACACAUCGUAUGUACCGAAUCGGAAGGAAGGGAAGGGGAAAGUAUUAUGUUACGCCGUUCGGAUCUGCACUUCCAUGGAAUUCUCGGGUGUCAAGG | -0.0249 |
| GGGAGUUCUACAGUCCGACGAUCGUCCUGUGCUACACAUCGUAUGUACCGAAUCAAAUUUUUAAAUUUUUAAACCCCCAAAAAAGUAUUAUGUUACGCCGUUCGGAUCUGCACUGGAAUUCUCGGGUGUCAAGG | 0.177 |
| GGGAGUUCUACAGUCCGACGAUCUUCAGGAUGAAGAUGCAUCAGGGGGCGAUCAAGAUCAGGAAGAAAGAAGAUGGAACAAAAGGACUCAGCAGAUGCUUCAUGGUCUUCAGGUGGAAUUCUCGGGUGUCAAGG | -1.25 |
| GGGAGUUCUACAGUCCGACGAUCGUCCUGUGCUACACAUCGUAUGUACCGAAUCGGAAAAAGGGGAAAAAGGGAAAAAGGGGAAAGUAUUAUGUUACGCCGUUCGGAUCUGCAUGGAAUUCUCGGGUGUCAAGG | 0.0599 |
| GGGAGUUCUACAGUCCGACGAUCCAAGUCCUGUGCUACACAUCGUAUGUACCGAAUCGGGUUUUUUUGGGAGGGUGGGAAAGUAUUAUGUUACGCCGUUCGGAUCUGCACUUCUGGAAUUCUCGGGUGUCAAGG | 1.05 |
| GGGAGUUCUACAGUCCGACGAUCCAAGUCCUGUGCUACACAUCGUAUGUACCGAAUCGGGAAAGGGUUUGGGUUUGGGAAAGUAUUAUGUUACGCCGUUCGGAUCUGCACUUCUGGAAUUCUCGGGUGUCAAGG | 0.883 |

Study 2 — method: protein-binding microarray; form: double-stranded DNA, one strand shown; sample: in vitro; tested at: 250 nM; notes: 60-bp whole probe; together with: salmon DNA 0.4 mg/ml; baseline: random background probes; direction: higher = stronger binding; all sequences stand within: GCCTAGCAC … GTCTTGATTCGCTTGACGCTGCTG
Target: Interferon regulatory factor 7, full length, phosphomimetic (IRF7, Homo sapiens, UniProt Q92985, residues 1-503, S101K/S471D/S472D/S475D/S476D/S477D/S483D/S484D/S487D)
Target sequence (chain): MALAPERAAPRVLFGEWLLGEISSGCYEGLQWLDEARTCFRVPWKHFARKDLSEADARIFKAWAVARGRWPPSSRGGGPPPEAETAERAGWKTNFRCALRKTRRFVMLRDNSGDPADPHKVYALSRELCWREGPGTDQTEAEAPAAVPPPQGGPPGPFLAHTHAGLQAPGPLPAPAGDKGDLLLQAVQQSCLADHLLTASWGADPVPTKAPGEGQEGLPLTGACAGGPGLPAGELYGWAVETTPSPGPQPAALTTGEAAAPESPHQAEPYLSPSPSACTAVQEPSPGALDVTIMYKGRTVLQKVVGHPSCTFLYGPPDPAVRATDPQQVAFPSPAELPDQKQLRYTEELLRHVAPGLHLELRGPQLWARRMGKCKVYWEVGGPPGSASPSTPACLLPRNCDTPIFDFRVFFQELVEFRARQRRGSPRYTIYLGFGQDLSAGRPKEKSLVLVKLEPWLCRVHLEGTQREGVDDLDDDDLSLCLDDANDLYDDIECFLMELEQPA
| Oligonucleotide | log fluorescence |
| --- | --- |
| TTAGGTTTAGGGACTGGGTTAGTGCTA | -0.113 z-score |
| GACGGTATCGGAATGGGGACGTGCTAG | 1.34 z-score |
| TTAGATCACAGACTGGATTAGTGCTAG | -0.0918 z-score |
| TTAGGACTGGACTATCGGTCAGTGCTA | -0.353 z-score |
| GAGGATTTCAGTATCGAGACGTGCTAG | -0.226 z-score |
| GACGGTCTCGGACTGGAGACGTGCTAG | -0.00502 z-score |
| TTAGGTAGCCTTCTCCTTTAGTGCTAG | -0.666 z-score |
| TTAGGCTTCGGTATCGGTTAGTGCTAG | 1.15 z-score |
| TTAGCACTGAGACTGGATTAGTGCTAG | -0.416 z-score |
| TTAGGACTGGGGCCTGGGTTAGTGCTA | -0.284 z-score |
| GTAGGTTTCGGTCTCGGTTAGTGCTAG | 8.28 z-score |
| GACGATTTCGACTATCGGGACGTGCTA | 0.633 z-score |
| GTGCCTTTTTTTTTTTTTCTGTGCTAG | 0.803 z-score |
| TCATGTTTCCTTCCTCTACTGTGCTAG | 1.95 z-score |
| TTACGTTTCGGTCTCGGTTAGTGCTAG | 4.76 z-score |
| TCAGGACTGGGGTATCGGTTAGTGCTA | -0.0609 z-score |
| CTTTTTCCCTATTATATATATGTGCTA | 5.55 z-score |
| TTAAATCTCAGACTGGATTAGTGCTAG | 0.0248 z-score |
| TCATCATTGCCTATTTTACTGTGCTAG | 0.381 z-score |
| GACGATATCAGACTGGAGTCGTGCTAG | -0.289 z-score |

Study 3 — method: protein binding microarray; form: double-stranded DNA, one strand shown; sample: in vitro; tested at: not given; baseline: not given; direction: higher = stronger binding
Target: Histone acetyltransferase KAT6A, winged helix 1, GST fusion (KAT6A, Homo sapiens, UniProt Q92794, residues 1-85)
Notes: 8-mer, flanks averaged, mean of 2 arrays, mostly near background
Target sequence (chain): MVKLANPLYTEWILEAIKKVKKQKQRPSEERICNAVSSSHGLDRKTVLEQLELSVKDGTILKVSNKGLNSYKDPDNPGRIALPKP
| Oligonucleotide | E-score |
| --- | --- |
| ATCCATTC | -0.201 |
| ATCCACGA | -0.12 |
| AACTGAAG | -0.142 |
| AAAATTCG | -0.112 |
| CCCTGACG | -0.0246 |
| GGAGCCCC | 0.182 |
| ACAGGGGT | -0.159 |
| CACTGTCA | -0.217 |
| CCAACTGA | -0.134 |
| GAGGACCC | 0.00331 |
| CTACGCAA | 0.0362 |
| ATTCAAAT | -0.235 |
| GAACCAGA | -0.192 |
| AGGAGTAG | -0.148 |
| CACGGAGC | 0.296 |
| ATCTCACA | -0.0967 |
| CAGAAGTA | -0.141 |
| GGGGAGCA | 0.0385 |
| TTACAAAA | 0.00169 |

Study 4 — target: CCNE2, cyclin fold, Cln2 fusion (human); method: yeast growth competition, sequencing; sample: yeast; notes: strong parent motif; baseline: not given; direction: higher = stronger binding
Starting sequence: E2F2 docking peptide (human); LPAKRKLDLEGIG; partner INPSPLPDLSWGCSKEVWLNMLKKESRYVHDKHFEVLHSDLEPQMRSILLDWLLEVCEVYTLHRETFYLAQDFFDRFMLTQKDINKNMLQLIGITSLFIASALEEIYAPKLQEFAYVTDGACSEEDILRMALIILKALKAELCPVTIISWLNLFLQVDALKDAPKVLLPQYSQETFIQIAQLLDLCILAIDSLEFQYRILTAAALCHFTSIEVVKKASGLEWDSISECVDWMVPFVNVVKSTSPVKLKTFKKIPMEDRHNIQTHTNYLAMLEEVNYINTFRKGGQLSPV
| Variant | normalised enrichment score |
| --- | --- |
| G11A | 0.772 |
| L9A | 0.407 |
| E10A | 0.492 |
| L9F | 5.17 |
| R5A | 1.08 |
| R5A L7A | 0.55 |
| L7A | 0.237 |
| K6A | 0.849 |
| R5K | 0.0617 |

Study 5 — method: aptamer microarray, sandwich; form: DNA with 2'F-ANA; sample: in vitro; tested at: 200 nM; together with: Cy3 exosite-II aptamer, 400 nM; direction: higher = stronger binding; oligonucleotide: GGTTGGTGTGGTTGG
Target: Prothrombin, mature alpha-thrombin (F2, Homo sapiens, UniProt P00734)
Notes: whole 15-mer aptamer, many near background
| Modification | mean fluorescence intensity [a.u.] |
| --- | --- |
| 2'F-ANA at 1 7 10 11 12 15 | 72 |
| 2'F-ANA at 1 3 8 9 | 346 |
| 2'F-ANA at 1 3 4 5 7 10 13 | 62.9 |
| 2'F-ANA at 1 3 6 9 10 13 15 | 69.7 |
| 2'F-ANA at 2 6 8 9 10 11 12 15 | 121 |
| 2'F-ANA at 1 4 5 7 8 9 13 14 15 | 48.5 |
| 2'F-ANA at 1 4 10 13 | 43.7 |
| 2'F-ANA at 2 3 4 6 7 10 12 13 | 259 |
| 2'F-ANA at 2 3 4 5 7 8 10 11 14 15 | 64.4 |
| 2'F-ANA at 1 4 8 14 15 | 58.3 |
| 2'F-ANA at 1 2 3 4 7 11 15 | 150 |
| 2'F-ANA at 1 3 4 8 9 10 11 14 | 62.6 |
| 2'F-ANA at 1 3 6 8 10 12 13 14 | 63.7 |
| 2'F-ANA at 2 3 5 6 7 11 12 14 | 53.6 |
| 2'F-ANA at 2 4 5 7 8 10 11 14 15 | 73.7 |
| 2'F-ANA at 1 5 7 9 11 12 14 15 | 46.7 |

Study 6 — method: yeast two-hybrid; form: peptide; sample: yeast; notes: mostly zero background; baseline: not given; direction: higher = stronger interaction
Sequence: ANYISAHTKDCPKCNICIEKNGGCNHMQCSKCKHDFCWMCLGDWKTHGSE (ARIH2 RING domain (UniProt O95376))
| target | lacZ reporter activity |
| --- | --- |
| UBE2C UBC core domain (UniProt O00762) | 0 |
| UBE2J2 UBC core domain (UniProt Q8N2K1) | 0 |
| UBE2G1 UBC core domain (UniProt P62253) | 0 |
| UBE2B UBC core domain (UniProt P63146) | 0 |
| UBE2E3 UBC core domain (UniProt Q969T4) | 0 |
| UBE2I UBC core domain (UniProt P63279) | 0 |
| UBE2L3 UBC core domain (UniProt P68036) | 0 |
| UBE2S UBC core domain (UniProt Q16763) | 0 |
| UBE2O UBC core domain (UniProt Q9C0C9) | 0 |

Excerpt of the above (study 5):
| Modification | mean fluorescence intensity [a.u.] |
| --- | --- |
| 2'F-ANA at 2 6 8 9 10 11 12 15 | 121 |
| 2'F-ANA at 1 4 5 7 8 9 13 14 15 | 48.5 |
| 2'F-ANA at 1 4 10 13 | 43.7 |
| 2'F-ANA at 2 3 4 6 7 10 12 13 | 259 |
| 2'F-ANA at 2 3 4 5 7 8 10 11 14 15 | 64.4 |
| 2'F-ANA at 1 4 8 14 15 | 58.3 |
| 2'F-ANA at 1 2 3 4 7 11 15 | 150 |
| 2'F-ANA at 1 3 4 8 9 10 11 14 | 62.6 |
| 2'F-ANA at 1 3 6 8 10 12 13 14 | 63.7 |
